{"data": "Assay results collected from several papers", "cell line": "HepG2", "note": "Several values in a cell are separate wells, animals, samples, runs or records. ± marks the error that the study gave."}
{"SMILES": "C#CC[N+]1(CC)CCc2c(sc(NC(=O)c3c(F)c(F)c(F)c(F)c3F)c2C(=O)OCC)C1.[Br-] (stereo not shown)", "assay": "cytotoxicity, resazurin", "setting": "up to 200 µM, 18 h", "quantity": "IC50", "value": "not toxic"}
{"SMILES": "COc1ccc(-c2cc(C(F)(F)F)c3c(N)c(C(=O)N4CCCC4)sc3n2)cc1", "assay": "cell growth", "setting": "concentration not given, 72 h", "quantity": "IC50", "value": "not toxic"}
{"SMILES": "CC(C)=CCC[C@](C)(O)[C@H]1CC[C@]2(C)[C@@H]1[C@H](O)C[C@@H]1[C@@]3(C)CC[C@H](O)C(C)(C)[C@@H]3[C@@H](O[C@@H]3O[C@H](CO)[C@@H](O)[C@H](O)[C@H]3O)C[C@]12C", "assay": "cell viability, CCK-8", "setting": "10 µM", "scale": "higher = more viable cells", "quantity": "optical density", "value": "1.3 a.u. and 1.47 a.u. and 1.31 a.u. and 1.22 a.u. and 1.43 a.u. and 1.27 a.u."}
{"SMILES": "CC1=CC(=O)c2c(O)cccc2C1=O", "assay": "MTT", "scale": "baseline: IC50 MRC-5 over IC50 HepG2", "quantity": "selectivity index", "value": 0.87}
{"SMILES": "O=C(N[C@H](CO)[C@H](O)c1ccc([N+](=O)[O-])cc1)C(Cl)Cl", "assay": "cell growth", "setting": "120 h", "quantity": "IC50", "value": "> 100 µM"}
{"SMILES": "CC1=C(O)C(=O)C=C2C1=CC=C1[C@@]2(C)CC[C@@]2(C)[C@@H]3C[C@](C)(C(=O)O)CC[C@]3(C)CC[C@]12C", "assay": "cell viability, CCK-8", "setting": "5 µM", "scale": "higher = more viable cells", "quantity": "optical density", "value": "0.176 a.u. and 0.232 a.u. and 0.205 a.u. and 0.2 a.u. and 0.204 a.u. and 0.256 a.u."}
{"SMILES": "NC(=O)c1ncn([C@@H]2O[C@H](CO)[C@@H](O)[C@H]2O)n1", "assay": "item: succinate dehydrogenase subunit A", "setting": "120 h", "quantity": "IC50", "value": "45 ± 1.4 µM"}
{"SMILES": "COc1cccc2c1C(=O)c1c(O)c3c(c(O)c1C2=O)C[C@@](O)(C(=O)CO)C[C@@H]3O[C@H]1C[C@H](N)[C@H](O)[C@H](C)O1", "assay": "SRB", "setting": "10 µg/mL, 48 h", "scale": "negative values mean cell killing", "quantity": "growth percent", "value": "-39.1%"}
{"SMILES": "NC(=O)c1nc(F)c[nH]c1=O", "assay": "cell growth", "setting": "120 h", "quantity": "IC50", "value": "> 400 µM"}
{"SMILES": "COc1ccc(-n2nc(C(C)=O)s/c2=N\\N=C(/C)c2ccc(NC(C)=O)cc2)cc1", "setting": "5 µM", "quantity": "toxicity", "value": "93.8%"}
{"note": "Repeated from above:"}
{"SMILES": "NC(=O)c1nc(F)c[nH]c1=O", "assay": "cell growth", "setting": "120 h", "quantity": "IC50", "value": "> 400 µM"}
